Assay results from different studies.
± gives the spread as reported.

Amino acid sequences for entries named in this document (tags omitted).
UniProt O60502, whole entry: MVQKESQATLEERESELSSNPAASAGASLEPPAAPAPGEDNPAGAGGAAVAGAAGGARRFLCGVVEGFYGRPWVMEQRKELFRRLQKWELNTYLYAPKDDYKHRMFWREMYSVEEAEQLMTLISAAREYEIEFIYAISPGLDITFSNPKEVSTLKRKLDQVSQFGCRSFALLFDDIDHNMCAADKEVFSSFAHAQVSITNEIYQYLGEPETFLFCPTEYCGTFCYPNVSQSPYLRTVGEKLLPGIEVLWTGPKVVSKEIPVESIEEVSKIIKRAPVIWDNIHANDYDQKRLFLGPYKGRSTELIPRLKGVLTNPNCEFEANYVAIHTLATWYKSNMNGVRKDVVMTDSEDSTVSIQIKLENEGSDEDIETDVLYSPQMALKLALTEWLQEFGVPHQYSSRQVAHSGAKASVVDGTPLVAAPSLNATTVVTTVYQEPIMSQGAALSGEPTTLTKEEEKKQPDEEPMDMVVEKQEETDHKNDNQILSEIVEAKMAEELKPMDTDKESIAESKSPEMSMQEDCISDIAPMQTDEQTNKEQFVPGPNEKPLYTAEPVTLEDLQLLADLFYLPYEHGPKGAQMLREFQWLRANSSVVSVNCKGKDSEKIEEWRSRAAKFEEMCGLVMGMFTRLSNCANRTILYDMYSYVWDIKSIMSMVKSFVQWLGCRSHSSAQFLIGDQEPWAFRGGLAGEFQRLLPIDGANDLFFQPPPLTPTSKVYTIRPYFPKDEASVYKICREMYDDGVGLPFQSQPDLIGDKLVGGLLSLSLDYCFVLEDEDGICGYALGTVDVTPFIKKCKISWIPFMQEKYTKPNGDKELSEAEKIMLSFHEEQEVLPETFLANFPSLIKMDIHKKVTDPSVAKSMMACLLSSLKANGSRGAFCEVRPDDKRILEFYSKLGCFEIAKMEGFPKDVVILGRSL

The selectivity index of `COc1cc([C@@H]2c3cc4c(cc3[C@@H](CC(C)(C)O)[C@H]3COC(=O)[C@H]23)OCO4)cc(OC)c1OC` is reported as > 1.9 (Leishmania infantum; Alamar Blue; HepG2; baseline: CC50 HepG2 over EC50 amastigotes).
For `Cc1ncsc1-c1ccc([C@H](C)NC(=O)[C@@H]2C[C@@H](O)CN2C(=O)[C@@H](NC(=O)CCCCCCC(=O)N2CCN(C[C@]3(C)CCC(c4ccc(Cl)cc4)=C(CN4CCN(c5ccc(C(=O)NS(=O)(=O)c6ccc(N[C@H](CCN7CCOCC7)CSc7ccccc7)c(S(=O)(=O)C(F)(F)F)c6)cc5)CC4)C3)CC2)C(C)(C)C)cc1`, expression level read “decreased” (item: Gpc3; STAM mice NASH-HCC model, liver; dose not given, day 150, treated days 45-150).
With `CCOc1ccccc1Nc1nnc(SCC(=O)Nc2cc(F)ccc2F)s1` the TNF-α secretion was 692 ± 21 pg/mL (PBMC-airway epithelium co-culture; 5 µM, 48 h, with: anti-CD3/CD28).
`C=CC(=O)N1CCC(c2cc(Nc3cc4n(n3)CCOC4)c3ncnn3c2)C1` (single isomer, unassigned) has an IC50 of > 1 µM (TMD8; calcium flux, FLIPR; 1 h preincubation, with: anti-IgM).
For `Nc1ncc(-c2ccc3ncnc(N4CCc5cc(F)c(Cl)cc54)c3c2)cn1`, the AUC(0-t) was 233 µg·h/mL (CD1 mouse, brain; oral, 100 mg/kg).
`CC(=NN=c1[nH]c2cc(F)c(F)cc2n1C)c1ccc(F)cn1` gave an inhibition of ~50% (MDA-MB-231; cell migration area; 50 nM, two days; baseline: untreated).
The half-life of `Cc1n[nH]c(C)c1CCOC(=O)c1cccc2c1oc(=O)n2C` is reported as > 2.5 h (human plasma).
For `C[C@@H]1CN(C2CCC2)CC[C@H](O[C@H]2[C@@H](O)C[C@H](O[C@H]3[C@@H](O)C[C@H](O[C@H]4CC[C@@]5(C)[C@H](CC[C@@H]6[C@@H]5C[C@@H](O)[C@]5(C)[C@@H](C7=CC(=O)OC7)CC[C@]65O)C4)O[C@@H]3C)O[C@@H]2C)O1`, “baseline extracellular K+” read 3.36 ± 0.11 mM (rat hippocampal slices; 1 µM, 24 min).
`Cc1cc(SCc2sc(-c3ccc(OC(F)(F)F)c(F)c3)nc2C)ccc1OCC(=O)O` gave a CC50 of > 50 µM (HEK293T; 18 h).
`CC(=O)Nc1ncc(CN2CC[C@H](Oc3cccc(F)n3)C[C@@H]2C)s1` [isotope labelled] has a binding of 4.1 nCi/mg (Protein O-GlcNAcase (OGA, Homo sapiens, UniProt O60502); autoradiography; human cortex sections; 5 nM, radiolabelled compound).
`CCC1NC(=O)C(CCCNC(=N)N)NC(=O)C(C)(NC(=O)C(C)C)CCCCNC(=O)C(c2ccccc2)NC1=O` (stereo not drawn): mRNA level “decreased” (RT-qPCR, item: HoxA genes; MLL-AF9 leukaemia cells, mouse; 20 µM).
`COc1cc([C@@H]2c3cc4c(cc3[C@@H](C=C(C)C)[C@H]3COC(=O)[C@H]23)OCO4)cc(OC)c1OC` has an EC50 of 14.5 ± 0.3 µM (Leishmania infantum; promastigote, iRFP).
With `COC(=O)[C@@]1(C)C=C(C(=O)Nc2cccc(C(=O)NC34CC(Nc5nccc(-c6cccnc6)n5)(C3)C4)c2)C(=O)CC1` the remaining activity was 0.456 fraction of control (MAPK9 (Homo sapiens, UniProt P45984); enzyme activity, inhibitor; 0.06097 µM).
With `COc1cc([C@@H]2c3cc4c(cc3C=C(C=O)[C@H]2C(=O)OCCCCCCBr)OCO4)cc(OC)c1OC` the selectivity index was 3.8 (Leishmania infantum; Alamar Blue; HepG2; baseline: CC50 HepG2 over EC50 amastigotes).
`CCOC(=O)C1=C(C)NC2=C(C(=O)CC(C)(C)C2)C1c1ccc(OCC(=O)NN=Cc2cccc(C=O)c2)cc1OCC(=O)NN=Cc1cccc(C=O)c1` (stereo not drawn): “inhibition zone diameter” 7.3 ± 0.1 mm (Staphylococcus aureus; 6538 P; concentration not given, 24 h).

A few entries again:
The selectivity index of `COc1cc([C@@H]2c3cc4c(cc3[C@@H](CC(C)(C)O)[C@H]3COC(=O)[C@H]23)OCO4)cc(OC)c1OC` is reported as > 1.9 (Leishmania infantum; Alamar Blue; HepG2; baseline: CC50 HepG2 over EC50 amastigotes).
